Published values of several laboratories.
Every numbered part comes from another study and shows a few of its results, in no order. Values joined by “and” are separate records of one study, mostly repeats; a detail may differ.

Set 1
SMILES: Cc1ccc(O)c(C)c1-c1cnc2[nH]c(-c3cnc(N4CCC5(CC4)CC(N4CCN(c6ccc(N[C@H]7CCC(=O)N(C)C7=O)cc6F)CC4)CO5)nc3)cc2c1C#N (single isomer, unassigned)
PKMYT1: Membrane-associated tyrosine- and threonine-specific cdc2-inhibitory kinase (PKMYT1, Homo sapiens, UniProt Q99640)
UniProt Q99640, sequence (whole entry, looked up): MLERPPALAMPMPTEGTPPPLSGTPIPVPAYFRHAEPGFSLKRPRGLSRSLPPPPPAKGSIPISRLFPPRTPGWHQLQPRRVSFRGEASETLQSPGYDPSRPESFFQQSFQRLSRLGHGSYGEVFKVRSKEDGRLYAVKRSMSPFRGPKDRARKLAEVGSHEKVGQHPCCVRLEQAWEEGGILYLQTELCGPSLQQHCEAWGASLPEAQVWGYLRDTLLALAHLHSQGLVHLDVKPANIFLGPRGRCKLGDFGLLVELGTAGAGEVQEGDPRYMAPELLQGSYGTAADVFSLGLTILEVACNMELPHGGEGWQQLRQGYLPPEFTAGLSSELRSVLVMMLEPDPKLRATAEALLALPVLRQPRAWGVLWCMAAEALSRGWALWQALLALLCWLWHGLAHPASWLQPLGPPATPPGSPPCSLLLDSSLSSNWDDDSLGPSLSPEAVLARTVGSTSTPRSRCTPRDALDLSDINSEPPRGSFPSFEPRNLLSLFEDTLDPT
| tested on | test | setting | inhibition |
| --- | --- | --- | --- |
| HCC1569 | automated capillary immunoblot, measured: CDK1 phospho-Thr14 | 0.46 nM, 24 h | -3.77% |
| HCC1569 | automated capillary immunoblot, measured: CDK1 phospho-Thr14 | 0.02 nM, 24 h | -0.184% |
| PKMYT1 | enzyme activity, inhibitor | 37.04 nM | 86.5% and 85.7% |
| PKMYT1 | enzyme activity, inhibitor | 460 pM | 0.82% and 2.85% |
| PKMYT1 | enzyme activity, inhibitor | 150 pM | -1.09% and -4.97% |
| HCC1569 | automated capillary immunoblot, measured: CDK1 phospho-Thr14 | 4.12 nM, 24 h | 6.7% |
| PKMYT1 | kinase activity, inhibitor | 0.1111 µM | 96.6% and 95.2% |
| HCC1569 | automated capillary immunoblot, measured: CDK1 phospho-Thr14 | 0.05 nM, 24 h | -3.15% |

Set 2 — cell line: AsPC-1; method: in-cell ELISA
Structure (SMILES): Cc1ncsc1-c1ccc(C2(NC(=O)C3CC(O)CN3C(=O)C(NC(=O)c3ccc(COc4c(-c5c(C)c(F)cc6[nH]ncc56)c(C5CC5)cc5c(N6CC7CC6CN7)nc(OC6CCOCC6)nc45)cc3)C(C)C)CC2)cc1 (stereo not shown)
| tested at | setting | phospho-ERK1/2 level |
| --- | --- | --- |
| 300 nM | individual replicates | 31.7% and 22% and 58.7% and 30.8% and 53.2% and 28.6% |
| 30 nM | per-experiment values | 88.6% and 97.7% and 87% |
| 300 pM | per-experiment values | 92.5% and 99.4% and 105% |
| 1 nM | individual replicates | 85.7% and 102% and 97.3% and 99.4% and 105% and 91% |
| 3 nM | per-experiment values | 88.7% and 99.5% and 97.3% |
| 100 nM | per-experiment values | 74% and 58% and 69.8% |

Set 3 — SMILES: Cc1nc(C)c(C=[N+]([O-])C(C)(C)C)nc1C; method: Western blot; host: MPTP mouse model; setting: unit not given; baseline: β-actin
| sample | dose | PGC-1α protein level |
| --- | --- | --- |
| substantia nigra nuclei | 90 mg/kg | 84.4 and 114 and 115 |
| substantia nigra cytosol | 90 mg/kg | 72.8 and 87.6 and 109 and 102 |
| substantia nigra cytosol | 10 mg/kg | 104 and 64.8 and 92.4 and 52.9 |
| substantia nigra nuclei | 10 mg/kg | 102 and 84.6 and 75.8 |

Set 4 — cell line: U-87 MG; tested at: concentration not given; baseline: DMSO
SMILES: CCN1/C(=C/C=C2\CCCC(/C=C/C3=[N+](CC)c4ccccc4C3(C)C)=C2NCCCCCCCCN2CCC(Nc3nc4ccccc4n3Cc3ccc(F)cc3)CC2)C(C)(C)c2ccccc21
| measured | log2 fold change |
| --- | --- |
| HMBOX1 mRNA | 0.877 |
| CCDC174 mRNA | 1.14 |
| C8orf88 mRNA | 1.28 |
| MVP mRNA | -1.04 |
| TEDC1 mRNA | -0.97 |
| PALMD mRNA | -1.98 |
| SLC9A5 mRNA | -1.42 |
| GALNT2 mRNA | -1.14 |
| S100A2 mRNA | -1.5 |
| RMC1 mRNA | 1.01 |
| AHNAK mRNA | -1.22 |
| PIF1 mRNA | -2.44 |
| GALK1 mRNA | -1.03 |
| FAM111B mRNA | -2.35 |
| NFKBIB mRNA | 1.32 |
| FBXL2 mRNA | -1.13 |

A few entries again (set 4):
| measured | log2 fold change |
| --- | --- |
| GALNT2 mRNA | -1.14 |
| S100A2 mRNA | -1.5 |
| RMC1 mRNA | 1.01 |
| AHNAK mRNA | -1.22 |
| PIF1 mRNA | -2.44 |
| GALK1 mRNA | -1.03 |
